# Measurements gathered from unrelated publications.
# Each line is one published result; not all experiments were run side by side.
SMILES,test,test system,setting,scale,quantity,result
CN1C(=O)[C@@H](NC(=O)c2nnc(Cc3ccccc3)[nH]2)COc2cccnc21,,"human, fasted","oral, 800 mg single dose",,subjects with headache,16.7%
C[C@H]1CN(C(=O)CC#N)[C@]12CCN(c1ncnc3[nH]ccc13)C2,,healthy human,"oral, dose not given",,subjects with Nausea,3.1%
COC(=O)N[C@H](C(=O)N1CCC[C@H]1c1ncc(-c2cc(F)c3c(c2)O[C@@H](c2cnc(C4CC4)s2)n2c-3cc3cc(-c4cnc([C@@H]5CCCN5C(=O)[C@@H](NC(=O)OC)C(C)C)[nH]4)ccc32)[nH]1)C(C)C,,healthy adult human,"oral, 180 mg, 6 days, compound alone",,subjects with upper abdominal pain,6.3%
CC(C)(C(=O)N1CCOc2c(C#N)cncc2C1)C(F)F,measured: vessel puncture site haemorrhage,"human, both sexes","oral, 20 mg once daily, 14 days, multiple ascending dose",,subjects with TEAE,0%
C=C(C)[C@@H]1CC[C@]2(NCCN3CCS(=O)(=O)CC3)CC[C@]3(C)[C@H](CC[C@@H]4[C@@]5(C)CC=C(C6=CC[C@@](CF)(C(=O)O)CC6)C(C)(C)[C@@H]5CC[C@]43C)[C@@H]12,,healthy human volunteers,"oral, 500 mg, 7 days",,subjects with musculoskeletal disorders,17%
C[C@@H](N)c1cc(Cl)ccc1Cn1c(=S)[nH]c(=O)c2[nH]ccc21,,human,"oral, 2.5 mg single dose",,subjects with headache,10%
CC(C)c1c(C(=O)Nc2ccccc2)c(-c2ccccc2)c(-c2ccc(F)cc2)n1CC[C@@H](O)C[C@@H](O)CC(=O)O,measured: Vertigo,healthy human,"oral, dose not given",,subjects with adverse event,0%
Cc1cc(-c2nccc3c2ccn3CC(=O)Nc2ccc(-c3cnccn3)cn2)ccn1,,human,"MAD part, 5 mg once daily",,subjects with any IMP-related TEAE,25%
CN(Cc1cnc2nc(N)nc(N)c2n1)c1ccc(C(=O)N[C@@H](CCC(=O)O)C(=O)O)cc1,measured: Headache,healthy human,"oral, dose not given",,subjects with adverse event,0%
CC[C@H](C)[C@H](NC(=O)[C@H](Cc1ccccc1)NC(=O)[C@H](CCC(=O)O)NC(=O)[C@H](CCCCNC(=O)COCCOCCNC(=O)COCCOCCNC(=O)CC[C@H](NC(=O)CCCCCCCCCCCCCCCCC(=O)O)C(=O)O)NC(=O)[C@H](C)NC(=O)[C@H](C)NC(=O)[C@H](CCC(N)=O)NC(=O)CNC(=O)[C@H](CCC(=O)O)NC(=O)[C@H](CC(C)C)NC(=O)[C@H](Cc1ccc(O)cc1)NC(=O)[C@H](CO)NC(=O)[C@H](CO)NC(=O)[C@@H](NC(=O)[C@H](CC(=O)O)NC(=O)[C@H](CO)NC(=O)[C@@H](NC(=O)[C@H](Cc1ccccc1)NC(=O)[C@@H](NC(=O)CNC(=O)[C@H](CCC(=O)O)NC(=O)C(C)(C)NC(=O)[C@@H](N)Cc1cnc[nH]1)[C@@H](C)O)[C@@H](C)O)C(C)C)C(=O)N[C@@H](C)C(=O)N[C@@H](Cc1c[nH]c2ccccc12)C(=O)N[C@@H](CC(C)C)C(=O)N[C@H](C(=O)N[C@@H](CCCNC(=N)N)C(=O)NCC(=O)N[C@@H](CCCNC(=N)N)C(=O)NCC(=O)O)C(C)C,,healthy human,"subcutaneous, 0.25 to 1.5 mg weekly, 16 weeks",,subjects withdrawn for adverse events,2.4%
CC(=O)N(C)[C@H]1CCN(C(=O)c2cnc3c(c2)C[C@](C)(c2ccc(F)cc2)N3)C1,,healthy male human,"oral, dose not given, all doses pooled",,subjects with any AE,70.8%
CN(C)C(=N)N=C(N)N,measured: any adverse event,healthy human,"oral, dose not given",baseline: subjects,subjects with adverse event,10%
C=CC(=O)NC1CCN(c2ncc3ncnc(Nc4ccc(Oc5ccc6c(c5)ncn6C)c(C)c4)c3n2)CC1,,healthy male human,"oral, 60 mg, 2 weeks, maximum CTCAE grade 4",,subjects with adverse events,0%
CC(=O)CC(c1ccccc1)c1c(O)c2ccccc2oc1=O (stereo not drawn),,human,"concentration not given, trial 1",,subjects with eye disorders,0%
O=C(COc1ccc(Cl)cc1)NC12CC(c3nnc([C@H]4C[C@@H](OC(F)(F)F)C4)o3)(C1)C2,,humans,concentration not given,,subjects with drug-related TEAE,71.4%

# A few entries again:
SMILES,test,test system,setting,scale,quantity,result
C=C(C)[C@@H]1CC[C@]2(NCCN3CCS(=O)(=O)CC3)CC[C@]3(C)[C@H](CC[C@@H]4[C@@]5(C)CC=C(C6=CC[C@@](CF)(C(=O)O)CC6)C(C)(C)[C@@H]5CC[C@]43C)[C@@H]12,,healthy human volunteers,"oral, 500 mg, 7 days",,subjects with musculoskeletal disorders,17%
